Published values pooled from the literature.
Protocols differ between the studies behind these lines.

Molecule | target or system | test | test system | conditions | scale | endpoint | result
Cc1cccc(N2CCN(C(=O)C3CCN(Cc4nc(-c5ccc(Cl)cc5)oc4C)CC3)CC2)c1C | SARS-CoV-2 | cytopathic effect | USA_WA1/2020 | round 1, 5-point |  | efficacy | 119%
WEPEFYEAM |  | AIM | peptide, CD8+ T cells from PBMC, human donors | HLA-B*40:01 restricted, unit not given | baseline: positive over tested donors | frequency of responding donors | 33
Nc1ncnc2c([C@@H]3N[C@H](CO)[C@@H](O)[C@H]3O)c[nH]c12 | Marburg virus | viral replication, antibody staining | HeLa, Musoke | 6.3 µM, 12 h |  | infected cells | 4.4%
NCc1cccnc1 | Replicase polyprotein 1ab, main protease (rep, Severe acute respiratory syndrome coronavirus 2, UniProt P0DTD1) | reporter gene (mKate2), inhibitor |  | 20 µM |  | inhibition | 0.0392%
O=C(O)[C@H]1O[C@@H](Oc2cc(O)c3c(=O)cc(-c4ccc(O)c(O)c4)oc3c2)[C@H](O)[C@@H](O)[C@@H]1O | Spike glycoprotein (Severe acute respiratory syndrome coronavirus 2, UniProt P0DTC2) | binding, biolayer interferometry |  |  |  | Kd | 59.5 µM
CC[C@H](C)[C@H](NC(=O)[C@H](CC(C)C)NC(=O)[C@H](Cc1c[nH]c2ccccc12)NC(=O)[C@H](CCC(N)=O)NC(=O)[C@@H](NC(=O)[C@H](Cc1ccccc1)NC(=O)[C@H](C)NC(=O)[C@H](CCCCNC(=O)COCCOCCNC(=O)COCCOCCNC(=O)CC[C@H](NC(=O)CCCCCCCCCCCCCCCCCCC(=O)O)C(=O)O)NC(=O)[C@H](CCC(N)=O)NC(=O)[C@H](C)NC(=O)[C@@H](NC(=O)[C@H](CCCCN)NC(=O)[C@H](CC(=O)O)NC(=O)[C@H](CC(C)C)NC(=O)C(C)(C)NC(=O)[C@@H](NC(=O)[C@H](CO)NC(=O)[C@H](Cc1ccc(O)cc1)NC(=O)[C@H](CC(=O)O)NC(=O)[C@H](CO)NC(=O)[C@@H](NC(=O)[C@H](Cc1ccccc1)NC(=O)[C@@H](NC(=O)CNC(=O)[C@H](CCC(=O)O)NC(=O)C(C)(C)NC(=O)[C@@H](N)Cc1ccc(O)cc1)[C@@H](C)O)[C@@H](C)O)[C@@H](C)CC)[C@@H](C)CC)C(C)C)C(=O)N[C@@H](C)C(=O)NCC(=O)NCC(=O)N1CCC[C@H]1C(=O)N[C@@H](CO)C(=O)N[C@@H](CO)C(=O)NCC(=O)N[C@@H](C)C(=O)N1CCC[C@H]1C(=O)N1CCC[C@H]1C(=O)N1CCC[C@H]1C(=O)N[C@@H](CO)C(N)=O |  | refers to: Pyrexia | healthy subjects | 5/5/8/10 mg titrated, multiple ascending dose |  | subjects with adverse events | 0%
COc1ccc(-c2cn3c(n2)sc2cc(C(=O)NCCCN4CCCCCC4)ccc23)cc1 | SARS-CoV-2 | cytopathic effect, cell-based CPE | USA_WA1/2020 |  |  | AC50 | 11.2 µM
CCc1c(C(=O)C(N)=O)c2c(OCC(=O)O)cccc2n1Cc1ccccc1 | C2C12 |  |  | 1 µM, with: KL venom | baseline: venom alone | viability difference | 7.17%
HKNNKSWMESEFRVY | human CD4 T cells | AIM | peptide |  |  | responding donors | 9%
Clc1ccc2nc(N3CCC(NCCc4cccnc4)CC3)sc2c1 | SARS-CoV-2 | cytopathic effect | USA_WA1/2020 | round 2, 5-point |  | maximum response | 89.6%
LLFNKVTLADAGFIK | human CD4 T cells | AIM | peptide |  |  | responding donors | 8%
CNC(=O)[C@@H](NC(=O)[C@H](CC(C)C)[C@H](O)C(=O)NO)C(C)(C)C | C2C12 |  |  | 10 µM, with: PB venom | baseline: venom alone | viability difference | 13.8%
Cn1cnc(Cn2c(=O)[nH]/c(=N\c3cc4cn(C)nc4cc3Cl)n(Cc3cc(F)c(F)cc3F)c2=O)n1 |  |  | human, normal renal function | oral, 375 mg, hypertriglyceridaemia TEAE, Severe severity |  | patients with adverse event | 0%

Some of these lines once more:
Molecule | target or system | test | test system | conditions | scale | endpoint | result
NCc1cccnc1 | Replicase polyprotein 1ab, main protease (rep, Severe acute respiratory syndrome coronavirus 2, UniProt P0DTD1) | reporter gene (mKate2), inhibitor |  | 20 µM |  | inhibition | 0.0392%
